Measurements pooled from the literature.
Every numbered part comes from another study and shows a few of its results, in no order. Changes are numbered by the printed parent chain.

Set 1 — method: RNA Bind-n-Seq; form: RNA; medium: in vitro; tested at: 365 nM; reference: no-protein control; reading: higher = stronger binding
Target: RNA binding protein fox-1 homolog 2, RRM domain, GST-SBP tag (RBFOX2, Homo sapiens, UniProt O43251-10, residues 100-194)
Setting: natural RNA segment, single round, ends assumed
Construct (chain): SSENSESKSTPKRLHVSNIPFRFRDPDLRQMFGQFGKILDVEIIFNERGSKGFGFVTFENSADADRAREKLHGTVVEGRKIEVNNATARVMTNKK
Strand | RBNS enrichment (R)
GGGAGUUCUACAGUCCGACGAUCGAAAUGAAGGACUUUUUUAACCUUUUCUUUUGUUUUUAAAAAAUAAAUCUGUAAAAUUUGCCUCUUCUGUGGCUUUCUCCCAGUGAUGACGUACCUAAGGUGAGGAAAAGUGGAAUUCUCGGGUGCCAA | 0.611
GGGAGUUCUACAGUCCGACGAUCGCCACCAAGGCCCCAAAGGAUAGGGACGGUCGUAUCCUUAUGAAUCCCACUAAAACUUAGGCUGGGAAUGACAGUUUUCCUUUCCAGUCUCAGUUCAUGAGAACCCAUUUUGGAAUUCUCGGGUGCCAA | 0.184
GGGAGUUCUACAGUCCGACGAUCGGCCGUGGCACUGGUGCCAGUACUUUGAAAGAUGGGGUGCAGCCUACACACUUACCUGUCUCAGACUCACAUGUACUAUCAUCUGAUGUACUCUGAUUGGCUAGUUUGGGUGGAAUUCUCGGGUGCCAA | 0.24
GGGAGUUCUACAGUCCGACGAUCUUGAAAGAAGUUUCAUUAAAAGCACCAUUGCUUUCUGUACUGCGUCAGUGCCUCAUUGUAUCAUCCUACUUGUGUUUUGCUCAAUAAAUGAAUAAAAGACCAUUUCUCUUUGGAAUUCUCGGGUGCCAA | 0.34
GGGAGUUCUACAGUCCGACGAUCCCCCAAACUUCUGUCGAGGAGCAAGGCUUGCCAGCAAGUCAGAAGGAUUUGAACCGAGCAGCCAAUCUUUCCAGCCCUCCCCUACCGACCUCUGCCUGGAGACGCAGCAGUGGAAUUCUCGGGUGCCAA | 0.604
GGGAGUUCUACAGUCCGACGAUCGAGCUGCAUAAUGUCCCUCUCUUGGCUAUUGACCAUGUGGUUCACGUACAAAACUCUGUAUAAGUUGAAGGAAAAUGUUCAUGUUCAUAUGUACUUGUUUGCUAUGACUAUGGAAUUCUCGGGUGCCAA | 0.346
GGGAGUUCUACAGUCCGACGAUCUAUUAUUCCCCUGCUUCAUGGCUGAAAUAAAAGGUGAUGGUAACUGGGGGCACCCCCUCUCCCUGGGAUAGCCACUGUCGGGGAGCACAGGACCAGCCUCUGGAUCAGUCUGGAAUUCUCGGGUGCCAA | 0.383
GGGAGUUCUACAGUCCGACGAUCAAGUUGGGGCUGAAGUACCUAAGUGUGAAUGUCUCUCCCGUUAAACUGAGUGUAGAAAUCUGAAUUUUUAAAAGAGCUGUAACUAGUUGUAAGUGCUUAGGAAGAAACUUUGGAAUUCUCGGGUGCCAA | 0.809
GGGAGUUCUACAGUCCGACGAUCGUUGAGCCCAAGUGGUGGAGUCCUAUUCAUGGGCCUCAGUGCAUGCUGGCUUUAGCCCCAUGCUCAGGGUUCUCUGGGAAGUUUCAGGUUUCCAAGAUAGCACAGUGACCUGGAAUUCUCGGGUGCCAA | 1.09
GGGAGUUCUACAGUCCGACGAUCUAUUGACAAUUGUCAUCAUGAAAUUACCCCUGAAUAAUCAGGUAAAUAAAGGAGUAUAUGAAUAGCAUUUGCCUCUCCUAAUCCUUACUGGCUGAACUUUCUUUGUUCCAUGGAAUUCUCGGGUGCCAA | 0.583
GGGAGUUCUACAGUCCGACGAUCUAGUAUUUUUCUUUUGGAAAUGUGCCUUAUGUUAAACACUAUGUACUUUUACUUUUUGCAUUGUCCAGACUUCUUUAUUAGAUGGAGAUGUUUCUUUUUCUGUCUUCUAGUGGAAUUCUCGGGUGCCAA | 0.315
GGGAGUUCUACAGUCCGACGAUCACCCACAGUGUUACCUGACUUAUGAAACUUGAAACCGCCUCUGGAGCCGCCAUUCUGCAGAGUAUUUGGAAAAAGAAAAAAGGGUUUAUGCUUACGUCUCUGGGGUCGGGUGGAAUUCUCGGGUGCCAA | 0.308

Set 2 — method: protein-binding microarray; form: double-stranded DNA, one strand shown; medium: in vitro; tested at: 250 nM; setting: 60-bp whole probe; together with: salmon DNA 0.4 mg/ml; reference: random background probes; reading: higher = stronger binding; shared flanks, not repeated: GCCTAGCAC … GTCTTGATTCGCTTGACGCTGCTG
Target: Interferon regulatory factor 7, full length, phosphomimetic (IRF7, Homo sapiens, UniProt Q92985, residues 1-503, S101K/S471D/S472D/S475D/S476D/S477D/S483D/S484D/S487D)
Target sequence (chain): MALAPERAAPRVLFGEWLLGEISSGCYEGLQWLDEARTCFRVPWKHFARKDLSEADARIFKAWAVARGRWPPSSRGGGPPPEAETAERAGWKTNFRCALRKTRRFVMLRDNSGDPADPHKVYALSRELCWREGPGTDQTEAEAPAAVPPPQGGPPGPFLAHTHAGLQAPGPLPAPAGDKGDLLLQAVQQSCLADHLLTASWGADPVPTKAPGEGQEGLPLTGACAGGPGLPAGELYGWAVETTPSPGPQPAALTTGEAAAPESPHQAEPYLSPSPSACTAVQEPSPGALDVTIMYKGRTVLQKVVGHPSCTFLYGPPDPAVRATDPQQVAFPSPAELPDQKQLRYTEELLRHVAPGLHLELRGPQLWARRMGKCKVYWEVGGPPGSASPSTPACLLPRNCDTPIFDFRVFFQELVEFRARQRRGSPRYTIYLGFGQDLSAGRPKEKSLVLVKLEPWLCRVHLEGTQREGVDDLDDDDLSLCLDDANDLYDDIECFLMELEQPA
Strand | log fluorescence
TTAGGACTGGGTCTCTGTTAGTGCTAG | 0.201 z-score
TCAGATTTTGCTTTCATACTGTGCTAG | 0.237 z-score
GACCAACTGAGACTGGAGACGTGCTAG | -0.0198 z-score
TACGAACTGAGTCTCGAGACGTGCTAG | 0.58 z-score
TCAGTTTTCACTTTTCCACTGTGCTAG | 3.15 z-score
TTCTCTTTTATTTTTTTTATGTGCTAG | 1.67 z-score
TTAGGTCTCGGGCTCGGTTAGTGCTAG | 1.15 z-score
TACGGTTTCCTACTGCTGACGTGCTAG | 1.63 z-score
AACGGTTCCGGTTTCGGGACGTGCTAG | 7.58 z-score
GACGAACTGGGGACTGGAGAGGTGCTA | -0.636 z-score
GACGGTTTCGGTTTCGGTACGTGCTAG | 14.6 z-score
TTACAACTGGGGTATCGATTAGTGCTA | 0.225 z-score
TCACTTGTCCCTCCGGGACTGTGCTAG | 0.474 z-score
GACGATTTCGGGTATGGAGACGTGCTA | 0.479 z-score
GACGGTCTCCTGATCCTGACGTGCTAG | -0.272 z-score
TTAGGTTTCCTTATCCGTTAGTGCTAG | 2.95 z-score

Set 3 — method: competition protein-binding microarray; form: double-stranded DNA, one strand shown; medium: in vitro; tested at: 2 µM; together with: Cbf1 competitor, 0.05 µM; reading: higher = stronger binding
Target: Phosphate system positive regulatory protein PHO4, full length, GST-tagged (PHO4, Saccharomyces cerevisiae, UniProt P07270, residues 1-312)
Setting: whole 60-bp probe, lowest competitor level
Target sequence (chain): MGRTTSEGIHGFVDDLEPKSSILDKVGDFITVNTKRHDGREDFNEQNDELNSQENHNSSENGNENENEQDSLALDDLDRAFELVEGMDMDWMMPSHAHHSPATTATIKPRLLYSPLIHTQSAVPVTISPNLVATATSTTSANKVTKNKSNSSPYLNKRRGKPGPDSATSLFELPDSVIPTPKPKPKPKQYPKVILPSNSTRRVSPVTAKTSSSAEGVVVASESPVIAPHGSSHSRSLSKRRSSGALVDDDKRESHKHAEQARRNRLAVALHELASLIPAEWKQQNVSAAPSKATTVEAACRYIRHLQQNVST
Strand | fluorescence intensity
CCAGAAAGCCGCTATCACGTGATGGTCAATTTCTTTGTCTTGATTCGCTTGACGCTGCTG | 14400 a.u.
TCTCGAATAGACGGCCACGTGATGGCTAACATTAATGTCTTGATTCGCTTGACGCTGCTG | 18000 a.u.
TTTTACATGAAACTGCGCGTGCCAGAAATGTTAAGAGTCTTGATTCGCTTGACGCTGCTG | 11800 a.u.
CTGAACCAGATGTTGCTCGTGGATTGGTTCGGTACCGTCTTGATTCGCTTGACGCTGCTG | 7740 a.u.
ATTCCTGTTCCGGGACAAGTGCTACAACTGACCTTAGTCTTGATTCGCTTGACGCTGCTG | 2830 a.u.
ACATACGCATATTTGCACGTACAAGATAAAAAAAGCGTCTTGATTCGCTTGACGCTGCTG | 6980 a.u.
CAGTAACAGGTACAGCACGTGCAAAATCAGGATGACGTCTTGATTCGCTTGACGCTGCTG | 20000 a.u.
ACACAAAATTGTGGAACCGTGACAAGCAATGGCTGAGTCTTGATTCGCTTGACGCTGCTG | 5070 a.u.
GTACTGCACCATTTGACCGTGATGGACACCATGGAGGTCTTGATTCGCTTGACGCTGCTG | 6620 a.u.
TAATTGCGACGGCGTCACCTGGAGAAACGAAAGATGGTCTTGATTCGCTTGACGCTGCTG | 3940 a.u.
GCTGCGGCATCATTGATCATGCCATTTTTGGACAATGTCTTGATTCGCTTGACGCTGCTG | 4010 a.u.
AAATTACTAAGTTGTGGCGTGGGTGACGCCGTATGAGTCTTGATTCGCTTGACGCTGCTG | 6400 a.u.
AAATTACTAAGTTGAGCGGTGGGTGACGCCGTATGAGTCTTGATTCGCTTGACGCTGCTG | 3550 a.u.
CTTTCCCGATCTTGTTATGTGGGTGTAGCACATTTGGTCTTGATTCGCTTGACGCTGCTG | 5090 a.u.
CTTCTGTAAATTTGCGAGGTGGGTGGACGCGCCCCGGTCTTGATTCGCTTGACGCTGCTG | 3840 a.u.
TCTTATATTGCAAAGCACGTTTCATCAAGACCTTTAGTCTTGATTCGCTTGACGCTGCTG | 13100 a.u.
TAATCGGAGACGAGTCACGTGCAAAAAGAAATCATAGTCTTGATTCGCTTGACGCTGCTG | 14000 a.u.

Set 4 — method: DHFR PCA, deep sequencing; medium: yeast; together with: (+)-ABA 0.0091 µM; reference: wild-type fitted maximum; reading: higher = stronger binding
Target: ABI1, truncated, D143A, DHFR fusion (Arabidopsis thaliana)
Setting: methotrexate growth selection, single substitutions
Parent: PYL1, truncated, DHFR fusion (Arabidopsis thaliana); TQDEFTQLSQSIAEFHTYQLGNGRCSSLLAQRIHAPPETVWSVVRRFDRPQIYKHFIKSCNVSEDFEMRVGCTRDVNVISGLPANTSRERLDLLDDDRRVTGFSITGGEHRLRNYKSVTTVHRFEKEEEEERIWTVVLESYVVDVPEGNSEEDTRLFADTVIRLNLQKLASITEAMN; partner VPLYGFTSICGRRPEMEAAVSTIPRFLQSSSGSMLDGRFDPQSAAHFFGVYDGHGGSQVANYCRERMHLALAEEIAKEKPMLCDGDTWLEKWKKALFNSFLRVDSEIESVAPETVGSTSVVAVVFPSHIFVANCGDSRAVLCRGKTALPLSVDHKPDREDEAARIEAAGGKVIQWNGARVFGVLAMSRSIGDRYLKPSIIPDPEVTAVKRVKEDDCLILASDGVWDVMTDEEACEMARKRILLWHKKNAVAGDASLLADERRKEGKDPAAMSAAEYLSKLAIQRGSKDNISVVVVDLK
Substitution | relative binding score
R113M | 15.7%
E127D | 38.1%
P50M | -1.41%
G108E | -5.88%
T39D | 5.19%
C60A | -3.3%
R98E | -3.95%
S26I | 1.52%
M68V | 8.94%
K58E | 14.1%
V145N | -0.136%
R98H | 0.71%
Y53R | -2.48%
E129W | 6.95%
S171M | 36.7%
R24I | 0.259%

Some of these lines once more (set 1):
Strand | RBNS enrichment (R)
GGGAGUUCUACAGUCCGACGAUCGUUGAGCCCAAGUGGUGGAGUCCUAUUCAUGGGCCUCAGUGCAUGCUGGCUUUAGCCCCAUGCUCAGGGUUCUCUGGGAAGUUUCAGGUUUCCAAGAUAGCACAGUGACCUGGAAUUCUCGGGUGCCAA | 1.09
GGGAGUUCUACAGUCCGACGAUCUAUUAUUCCCCUGCUUCAUGGCUGAAAUAAAAGGUGAUGGUAACUGGGGGCACCCCCUCUCCCUGGGAUAGCCACUGUCGGGGAGCACAGGACCAGCCUCUGGAUCAGUCUGGAAUUCUCGGGUGCCAA | 0.383
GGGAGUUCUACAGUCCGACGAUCUUGAAAGAAGUUUCAUUAAAAGCACCAUUGCUUUCUGUACUGCGUCAGUGCCUCAUUGUAUCAUCCUACUUGUGUUUUGCUCAAUAAAUGAAUAAAAGACCAUUUCUCUUUGGAAUUCUCGGGUGCCAA | 0.34
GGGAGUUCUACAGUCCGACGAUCAAGUUGGGGCUGAAGUACCUAAGUGUGAAUGUCUCUCCCGUUAAACUGAGUGUAGAAAUCUGAAUUUUUAAAAGAGCUGUAACUAGUUGUAAGUGCUUAGGAAGAAACUUUGGAAUUCUCGGGUGCCAA | 0.809
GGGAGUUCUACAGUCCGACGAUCCCCCAAACUUCUGUCGAGGAGCAAGGCUUGCCAGCAAGUCAGAAGGAUUUGAACCGAGCAGCCAAUCUUUCCAGCCCUCCCCUACCGACCUCUGCCUGGAGACGCAGCAGUGGAAUUCUCGGGUGCCAA | 0.604
